Published values collected from several papers.
Values joined by “and” are separate records of one study, mostly repeats; a detail may differ. Numbers after ± are the reported error.
SLC6A3: Sodium-dependent dopamine transporter (SLC6A3, Homo sapiens, UniProt Q01959)
kasA: 3-oxoacyl-[acyl-carrier-protein] synthase 1 (kasA, Mycobacterium tuberculosis, UniProt P9WQD9)
4'-phosphopantetheinyl transferase PptT: 4'-phosphopantetheinyl transferase PptT (Mycobacterium tuberculosis, UniProt O33336)
Oprm1: Mu-type opioid receptor (Oprm1, Rattus norvegicus, UniProt P33535)
uncharacterized protein: uncharacterized protein (Vibrio cholerae, UniProt A0A0X1KYD0)
cydA with subunit CydB: cydA, with subunit CydB (Mycobacterium tuberculosis, UniProt L7N662)

SMILES | target | test | test system | conditions | how to read | measurement | value
CC(NC(C)(C)C)C(=O)c1cccc(Cl)c1 (centres unmarked) | Voltage-dependent P/Q-type calcium channel subunit alpha-1A (Homo sapiens, UniProt O00555) | ion current, antagonist | HEK293 | 10 µM | – | inhibition | 24%
CCC[C@H](C(=O)c1ccc(C)cc1)N1CCCC1 | SLC6A3 | DAT-mediated current recovery, electrophysiology | human DAT-expressing cells | 100 µM, with: 30 µM dopamine | – | koff | 1.73 s⁻¹
CCc1nc2ccc(Cl)cn2c1C(=O)N1C2CCC1CC2 | kasA | thermal stabilization, nanoDSF | – | 100 µM | – | ΔTm | 0.1 °C
C=CCN1CC[C@]23c4c5ccc(O)c4O[C@H]2C(=O)CC[C@]3(O)[C@H]1C5 | Glutamate receptor ionotropic, NMDA 1, glycine site (GRIN1, Homo sapiens, UniProt Q05586) | – | – | concentration not given | – | inhibition | 5.7%
CCc1nc2ccc(Cl)cn2c1C(=O)NCC1(OC)CCOCC1 | kasA | thermal stabilization, nanoDSF | – | 100 µM | – | ΔTm | -0.18 °C
Clc1cc(Cl)cc(N2CCNCC2)c1 | Muscarinic acetylcholine receptor M3 (CHRM3, Homo sapiens, UniProt P20309) | ERK1/2 phosphorylation, agonist | CHO cells | – | – | Emax | < 10%
CCn1ncc2ccc(NS(=O)(=O)c3ccc(OC)c(OC)c3)cc21 | kasA | thermal stabilization, nanoDSF | – | 100 µM | – | ΔTm | -0.15 °C
Oc1ccc2c3c1O[C@H]1[C@@H](O)CC[C@@]4(O)[C@@H](C2)N(CC2CCC2)CC[C@]314 | Mas-related G-protein coupled receptor member X2 (MRGPRX2, Homo sapiens, UniProt Q96LB1) | β-arrestin recruitment, TANGO luminescence | – | concentration not given | reference: basal luminescence | log2 fold change | -0.257
O=C1c2c(O)ccc(O)c2C(=O)c2c(NCCNCCO)ccc(NCCNCCO)c21 | 4'-phosphopantetheinyl transferase PptT | inhibitor | – | concentration not given | – | enzyme activity | inactive
COC(=O)/C=C/C(=O)N[C@@H]1CC[C@@]2(O)[C@H]3Cc4ccc(O)c5c4[C@@]2(CCN3CC2CC2)[C@H]1O5 | Oprm1 | covalent, radioligand binding after TCA denaturation | N2a cell membranes | 1.5 nM, 75 min, with: 200 mM NaCl | – | irreversible specific binding | 63.6 ± 2.97%
NCCc1ccc(Oc2ccc(O)cc2)c(I)c1 | Trace amine-associated receptor 1 (Macaca mulatta, UniProt Q8HZ64) | CRE-luciferase reporter, agonist | TAAR1-expressing cells | 10 µM, 18 h | reference: vehicle | reporter activity | 680%
CCCNC(=O)NS(=O)(=O)c1ccc(Cl)cc1 | kasA | thermal stabilization, nanoDSF | – | 100 µM | – | ΔTm | -0.34 °C
CCCC(C(=O)c1ccc2c(c1)OCO2)N1CCCC1 (centres unmarked) | SLC6A3 | transporter current, inhibitor, electrophysiology | human DAT-expressing cells | 100 µM, current recovery, with: dopamine 30 µM | – | koff | 0.65 s⁻¹
Oc1ccc2c3c1O[C@H]1c4oc5ccccc5c4C[C@@]4(O)[C@@H](C2)N(CC2CC2)CC[C@]314 | Transient receptor potential cation channel subfamily M member 7 (Trpm7, Mus musculus, UniProt Q923J1) | Ca2+ influx, activator, aequorin | HEK-293T | – | – | Hill coefficient | 1.19 ± 0.14
NCCc1ccccc1 | Trace amine-associated receptor 1, with DAT (Macaca mulatta, UniProt Q8HZ64) | CRE-luciferase reporter, agonist | TAAR1-DAT co-expressing cells | 10 µM, 18 h | reference: vehicle | reporter activity | 1750%
COC(=O)[C@@H](NC(=O)c1nn(Cc2ccc(F)cc2)c2ccccc12)C(C)(C)C | Cannabinoid receptor 1, with Gi1 (CNR1, Homo sapiens, UniProt P21554) | GTP turnover, agonist, item: Gi1 Gα subtype | – | – | – | maximal efficacy | 111%
CN1CC[C@]2(C)c3cc(OC(=O)Nc4ccccc4)ccc3N(C)[C@H]12 | human nicotinic α4β2 receptor | radioligand binding | – | 10 µM, with: [3H]epibatidine | – | inhibition | 0.5%
CCn1ncc2ccc(NS(=O)(=O)c3ccc(NC(=O)C(F)(F)F)cc3)cc21 | kasA | thermal stabilization, nanoDSF | – | 100 µM | – | ΔTm | -0.2 °C

SMILES | target | test | test system | conditions | how to read | measurement | value
Cc1nc2ccc(CN(C)c3ccc(C(=O)N[C@@H](CCC(=O)O)C(=O)O)s3)cc2c(=O)[nH]1 | 4'-phosphopantetheinyl transferase PptT | enzyme activity, inhibitor, fluorescence polarisation | – | – | – | Hill slope | 1.4
CCn1ncc2ccc(NS(=O)(=O)c3c(F)c(F)cc(F)c3F)cc21 | kasA | thermal stabilization, nanoDSF | – | 100 µM | – | ΔTm | 0.18 °C
CCCCCCCC[C@H]1O[C@H]1C/C=C/C=C/[C@H](O)CC(=O)NC1=C[C@](C)(CC)OC1=O | Na(+)-translocating NADH-quinone reductase subunit B, whole Na+-NQR complex (nqrB, Vibrio cholerae serotype O1, UniProt Q9KPS2) | isothermal titration calorimetry | – | 20 °C | – | ΔG | -10 kcal/mol
CC(C)n1ncc2ccc(NS(=O)(=O)c3ccc(CCC(=O)O)cc3)cc21 | kasA | thermal stabilization, nanoDSF | – | 100 µM | – | ΔTm | -0.21 °C
CNC1(c2ccccc2Cl)CCCCC1=O (racemic) | SLC6A3 | radioligand binding, antagonist, radioligand displacement | – | 30 µM | – | inhibition | 22%
Nc1nc2c(ncn2[C@@H]2O[C@H](COP(=O)(O)OP(=O)(O)O)[C@@H](O)[C@H]2O)c(=O)[nH]1 | uncharacterized protein | nucleotide binding, isothermal titration calorimetry | – | concentration not given, no Mg2+ | – | binding stoichiometry | ~1
c1ccc2cc([C@]34CNC[C@H]3C4)ccc2c1 | SLC6A3 | inhibitor, [3H]dopamine uptake | – | 1 µM | reference: no inhibitor | dopamine uptake | 17.3% and 12.7% and 12.2%
O=c1c2cc(Cl)ccc2[nH]c(=S)n1Cc1cccnc1 | 4'-phosphopantetheinyl transferase PptT | enzyme activity, inhibitor, preincubation and dialysis | – | concentration not given, overnight dialysis | – | activity recovery | ~75%
CCCCCCCCCCc1c(C)c(O)c(OC)c(OC)c1O | cydA with subunit CydB | biochemical | – | – | – | specific activity | 9 µmol/min/mg and 5.1 µmol/min/mg
Clc1cccc(N2CCNCC2)c1Cl | Muscarinic acetylcholine receptor M1 (CHRM1, Homo sapiens, UniProt P11229) | ERK1/2 phosphorylation, agonist | CHO cells | – | – | Emax | < 10%
COc1c(O)c(C)c(C/C=C(\C)CCC=C(C)C)c(O)c1OC | cydA with subunit CydB | biochemical | – | – | – | specific activity | 8.7 ± 2.5 µmol/min/mg
Oc1cccc([C@]23CCC[C@H]([C@H]2O)N(CC=Cc2ccccc2)CC3)c1 | Oprm1 | agonist | C6 cells expressing mu opioid receptor | 10 µM | reference: DAMGO | efficacy | 20 ± 6%
CCn1ncc2ccc(NS(=O)(=O)c3cc(C(=O)O)ccc3C)cc21 | kasA | thermal stabilization, nanoDSF | – | 100 µM | – | ΔTm | -0.24 °C
COc1c(O)c(C)c(CC=C(C)C)c(O)c1OC | cydA with subunit CydB | enzyme activity, biochemical | – | – | – | Km | 51.6 ± 8.9 µM
O=[N+]([O-])c1ccc(CCN2CC[C@@]3(c4cccc(O)c4)CCC[C@@H]2[C@H]3O)cc1 | Oprm1 | agonist | C6 cells | – | reference: delta over mu opioid receptor | selectivity ratio | ~850
Cc1[nH]c2ccccc2c(=O)c1-c1ccc(Oc2ccc(OC(F)(F)F)cc2)cc1 | cydA with subunit CydB | enzyme activity, biochemical | – | – | – | Km | 8.7 ± 1.6 µM
Nc1nc2c(ncn2[C@@H]2O[C@H](COP(=O)(O)OP(=O)(O)CP(=O)(O)O)[C@@H](O)[C@H]2O)c(=O)[nH]1 | uncharacterized protein | nucleotide binding, isothermal titration calorimetry | – | concentration not given, no Mg2+ | – | binding stoichiometry | ~1

Excerpt of the above:
SMILES | target | test | test system | conditions | how to read | measurement | value
CCc1nc2ccc(Cl)cn2c1C(=O)NCC1(OC)CCOCC1 | kasA | thermal stabilization, nanoDSF | – | 100 µM | – | ΔTm | -0.18 °C
CCC[C@H](C(=O)c1ccc(C)cc1)N1CCCC1 | SLC6A3 | DAT-mediated current recovery, electrophysiology | human DAT-expressing cells | 100 µM, with: 30 µM dopamine | – | koff | 1.73 s⁻¹
COc1c(O)c(C)c(CC=C(C)C)c(O)c1OC | cydA with subunit CydB | enzyme activity, biochemical | – | – | – | Km | 51.6 ± 8.9 µM
CCCNC(=O)NS(=O)(=O)c1ccc(Cl)cc1 | kasA | thermal stabilization, nanoDSF | – | 100 µM | – | ΔTm | -0.34 °C
